Measurements pooled from the literature.
Compare with care: the assays were run in different laboratories. ± gives the spread as reported.

Structure (SMILES)	test	system	conditions	scale	measurement	value
O=c1[nH]c(N2CCC3(CC2)CN(CCO)c2cc(F)cc(F)c23)nc2c1CCCC2		mouse COLO 320DM xenograft	intraperitoneal, 100 mg/kg once daily, 5 days on 2 off, 2 weeks		tumour growth inhibition	32.9%
C#CCCCC(O)/C=C/C(=O)NC1(c2ccc(-c3nc4ccn5c(=O)[nH]nc5c4cc3-c3ccccc3)cc2)CCC1 (centres unmarked)		mouse, MDA-MB-468 xenograft	oral, 200 mg/kg twice weekly		tumour growth slope	0.0438 ± 0.0022
CCCC[C@H](NC(=O)COCCOCCNC(=O)CN1CCN(CC(=O)O)CCN(CC(=O)O)CC1)C(=O)N[C@H]1CC(=O)NCCCC[C@@H](C(N)=O)NC(=O)[C@H](Cc2c[nH]c3ccccc23)NC(=O)[C@H](CCCNC(=N)N)NC(=O)[C@@H](Cc2ccccc2)NC(=O)[C@H](Cc2c[nH]cn2)NC1=O [copper-64 labelled]		C57 mouse, B16/F10 melanoma	dose not given, 2 h post-injection, together with: NDP-MSH 6.07 nmol		tumour uptake blocked	~88%
Clc1ccc(NN=C(c2ccccc2)c2ccccn2)nc1		nude mouse, H358 xenograft	intraperitoneal, 110 mg/kg, sesame oil vehicle	reference: vehicle	tumour growth rate	decreased
C#CCCCC(F)/C=C/C(=O)NC1(c2ccc(-c3nc4ccn5c(=O)[nH]nc5c4cc3-c3ccccc3)cc2)CCC1 (centres unmarked)		mouse, MDA-MB-468 xenograft	oral, 200 mg/kg twice weekly		tumour growth slope	0.0473 ± 0.0015
Cc1cc2c(cc1O)C=C1C=CC(=O)C(C)(C)[C@H]1CC2		mouse AOM/DSS colitis-associated cancer	50 mg/kg, day 84		tumour incidence	62.5%
CC[C@H](C)[C@H](NC(=O)[C@H](C)NC(=O)[C@H](CC(C)C)NC(=O)[C@H](Cc1ccc(O)c(I)c1)NC(C)=O)C(=O)NCCCCCC(=O)N1CCC[C@H]1C(=O)N[C@@H](C)C(=O)N[C@@H](CC(=O)O)C(=O)N[C@@H](CCC(=O)O)C(=O)N[C@H](C(=O)N[C@@H](CC(=O)O)C(=O)NCC(=O)N[C@@H](CCCNC(=N)N)C(=O)N[C@@H](CCCNC(=N)N)C(=O)N[C@@H](CCCNC(=N)N)C(=O)N[C@@H](CCCN)C(=O)N[C@@H](CCCNC(=N)N)C(=O)N[C@@H](CCCNC(=N)N)C(=O)N[C@@H](CCCCN)C(=O)N[C@@H](CCCCN)C(=O)N[C@@H](CCCNC(=N)N)C(=O)N[C@@H](CCCCNC(=O)CN1CCN(CC(=O)O)CCN(CC(=O)O)CCN(CC(=O)O)CC1)C(N)=O)C(C)C [iodine-125 labelled]		BALB/c mouse, orthotopic 4T1 tumours, tumour	dose not given, 1 h		tumour uptake	2.4 ± 0.3 %ID/g
C=CC(=O)N1C[C@H](C)N(c2nc(OC[C@@]34CCCN3C[C@H](F)C4)nc3c(F)c(-c4ccc(F)c5sc(N)c(C#N)c45)c(C(F)(F)F)cc23)C[C@H]1C		mouse, MIA PaCa-2 xenograft	oral, 10 mg/kg daily, 28 days		tumour volume regression	90%
C#Cc1cccc(Nc2ncnc3cc(OC)c(OCCCN4CCOCC4)cc23)c1		nude mouse, A-431 xenograft	oral gavage, 40 mg/kg/day		tumour burden	inhibited
C[C@H](NC(=O)CNC(=O)[C@H](CCC(=O)O)NC(=O)[C@H](CCC(=O)O)NC(=O)[C@H](CC(=O)O)NC(=O)[C@@H]1CCCN1C(=O)[C@H](Cc1ccccc1)NC(=O)[C@H](CS)NC(=O)[C@H](Cc1ccc(O)cc1)NC(=O)CCCNC(=O)CNC(=O)CNC(=O)[C@@H](C)NC(=O)CN)C(=O)N[C@@H](CS)C(=O)N[C@@H](Cc1ccc(O)cc1)C(N)=O [technetium-99m labelled]	SPECT	BALB/c nude mouse, SKBR3 tumour	intravenous, 37 MBq, 60 min		tumour to non-tumour ratio	4.23
Clc1ccc2ccc3[n+](c2c1)[Ir-3]12([c]4ccccc4-3)([c]3ccccc3-c3ccc4ccc(Cl)cc4[n+]31)[n+]1ccccc1-c1cccc[n+]12.F[P-](F)(F)(F)(F)F		BALB/c mouse, 4T1 allograft	intraperitoneal, 2 mg/kg daily, 18 days		tumour weight reduction	43.3%
CC(=O)Nc1ccc(OC(=O)CCC(=O)[O][Pt-2]23([O]C(=O)CCC(=O)Oc4ccc(NC(C)=O)cc4)([NH2+][C@@H]4CCCC[C@H]4[NH2+]2)[O]C(=O)C(=O)[O]3)cc1		BALB/c mouse, 4T1 tumour	intravenous, dose not given, 27 days, every two days	reference: PBS	tumour volume reduction	74.2%
Cc1cc(O)cc(O)c1C(=O)c1c2c3c(c(O)cc(C)c3oc1=O)C(=O)c1c(O)cc(O)cc1-2		Bel-7402 xenograft, mouse	intraperitoneal, 7 mg/kg daily, day 21		tumour volume	966 ± 249 mm³
Cc1cc(C)c(S(=O)(=O)N(CC(=O)O)c2ccc(Nc3ccnc(N4CCCC4)n3)cc2)c(C)c1		BALB/c nude mouse HCT-116 xenograft	intraperitoneal, 50 and 100 mg/kg/day, 21 d		tumour growth	decreased
CC=C1C(OC2OC(CO)C(O)C(O)C2O)OC=C(C(=O)OC)C1CC(=O)OCC1OC(OCCc2ccc(O)cc2)C(O)C(O)C1O (centres unmarked)		BALB/c mouse, orthotopic colon 26 tumour	oral, 109.2 mg/kg daily, 10 days	reference: untreated tumour group	tumour weight decrease	24.4%
CS(=O)(=O)c1sc(NC(=O)Nc2ccc(Cl)cc2)c2c1C=CCC2		MIA PaCa-2 xenograft, mouse	intraperitoneal, 10 mg/kg daily, 28 days		tumour volume	858 ± 197 mm³
COc1ccc(CCNc2ncnc3sc(C)cc23)cc1OC	measured: CD31	mouse LNCaP xenograft	intraperitoneal, 2.6 mg/kg daily		tumour angiogenesis	decreased
CCN(C(=O)c1cc(F)ccc1Oc1nncnc1N1CCC2(C1)CN([C@H](CCCN(C)CCOC)C(C)C)C2)C(C)C		mouse, subcutaneous MOLM-14 AML xenograft	oral, 50 mg/kg daily, 5 weeks		tumour regression	97%
CC(C)[C@H](CO)Nc1nc(Nc2ccc(C(=O)NCCNS(=O)(=O)c3cccc4c(N(C)C)cccc34)c(Cl)c2)c2ncn(C(C)C)c2n1	MRI	ND2-SmoA1 mouse medulloblastoma	intraperitoneal, 20 mg/kg three times weekly, up to 12 weeks		tumour volume	0.31 ± 0.25 mm³
O=C([O-])CN1CCN(CC(=O)[O-])CCN(CC(=O)NC[C@H]2CC[C@H](C(=O)N[C@H](Cc3cnc4ccccc4c3)C(=O)NCCCC[C@H](NC(=O)N[C@@H](CCC(=O)O)C(=O)O)C(=O)O)CC2)CCN(CC(=O)[O-])CC1.[64Cu+2]	micro-PET	mouse 22Rv1 xenograft	intravenous, 5.55 MBq, 24 h		tumour SUVmax	2.84 ± 0.46
CCCCCCCCCCCCCC(=O)N1CCC[C@H]1C(=O)N[C@@H](CO)C(=O)N[C@@H](CCC(N)=O)C(=O)N[C@@H](CO)C(=O)N[C@@H](CCCCNC(=O)c1ccc(Br)cc1)C(=O)N[C@@H](CO)C(=O)N[C@@H](CCCCNC(=O)c1ccc(Br)cc1)C(=O)N[C@@H](C)C(=O)O		female SCID mouse, MDA-MB-231 fat pad xenograft	intratumoral, dose not given, alternate days for one month	reference: DMSO-PBS vehicle	tumour regression	2.7 fold
CCc1cnc(NC(=O)c2cc(S(=O)(=O)N3CCOCC3)ccc2N(C)C2CCCC2)s1		mouse, HCC827-GR xenograft	intraperitoneal, 10 mg/kg every other day, day 15		tumour volume	186 ± 16 mm³
COc1cccc2c1C(=O)c1c(O)c3c(c(O)c1C2=O)CC(O)(C(=O)CO)CC3OC1CC(NC(=O)C[C@H](N)C(=O)O)C(O)C(C)O1 (some centres unmarked)		mouse, HepG2 xenograft	intravenous, 5 mg/kg twice weekly, end of study	reference: initial tumour volume	tumour volume	~5 fold
C[C@@H](O)[C@H](NC(=O)[C@@H]1CSSC[C@H](NC(=O)[C@@H](Cc2ccccc2)NC(=O)CCOCCOCCOCCOCCOCCOCCOCCOCCNC(=S)Nc2ccc(C[C@H]3CN(CC(=O)O)CCN(CC(=O)O)CCN3CC(=O)O)cc2)C(=O)N[C@@H](Cc2ccc(O)cc2)C(=O)N[C@H](Cc2c[nH]c3ccccc23)C(=O)N[C@@H](CCCCN)C(=O)N[C@@H]([C@@H](C)O)C(=O)N1)C(=O)O [copper-64 labelled]		HCT116-SSTR2, NCr nude mouse female xenograft	dose not given, 4 h, 64Cu-labelled, together with: Y3-TATE 50 µg, 30 min prior		tumour uptake decrease	61%
NC(=O)c1cccnc1.O.O=c1[nH]cc(F)c(=O)[nH]1.O=c1[nH]cc(F)c(=O)[nH]1.O=c1[nH]cc(F)c(=O)[nH]1		nude mouse HCT-116 xenograft	0.018 mmol/kg/day, 21 days		tumour weight	0.5 ± 0.1 g
Cc1ncsc1-c1ccc(C(CO)NC(=O)C2CC(O)CN2C(=O)C(C(C)C)n2cc(-c3ccc(COc4c(-c5c(C)c(F)cc6[nH]ncc56)c(C5CC5)cc5c(N6CC7CC6CN7)nc(OC6CCOCC6)nc45)cc3)nn2)cc1 (centres unmarked)		mouse PK-59 xenograft	intravenous, 10 mg/kg once weekly, day 21		tumour regression	18%

A few entries again:
Structure (SMILES)	test	system	conditions	scale	measurement	value
CCCC[C@H](NC(=O)COCCOCCNC(=O)CN1CCN(CC(=O)O)CCN(CC(=O)O)CC1)C(=O)N[C@H]1CC(=O)NCCCC[C@@H](C(N)=O)NC(=O)[C@H](Cc2c[nH]c3ccccc23)NC(=O)[C@H](CCCNC(=N)N)NC(=O)[C@@H](Cc2ccccc2)NC(=O)[C@H](Cc2c[nH]cn2)NC1=O [copper-64 labelled]		C57 mouse, B16/F10 melanoma	dose not given, 2 h post-injection, together with: NDP-MSH 6.07 nmol		tumour uptake blocked	~88%
Clc1ccc(NN=C(c2ccccc2)c2ccccn2)nc1		nude mouse, H358 xenograft	intraperitoneal, 110 mg/kg, sesame oil vehicle	reference: vehicle	tumour growth rate	decreased
